# Measurements from different studies.
# Parts stem from different laboratories: compare values within a part only.

# Study 1
# Target: Interferon regulatory factor 7, full length, phosphomimetic (IRF7, Homo sapiens, UniProt Q92985, residues 1-503, S101K/S471D/S472D/S475D/S476D/S477D/S483D/S484D/S487D)
# UniProt Q92985, sequence (whole entry, unmodified, looked up): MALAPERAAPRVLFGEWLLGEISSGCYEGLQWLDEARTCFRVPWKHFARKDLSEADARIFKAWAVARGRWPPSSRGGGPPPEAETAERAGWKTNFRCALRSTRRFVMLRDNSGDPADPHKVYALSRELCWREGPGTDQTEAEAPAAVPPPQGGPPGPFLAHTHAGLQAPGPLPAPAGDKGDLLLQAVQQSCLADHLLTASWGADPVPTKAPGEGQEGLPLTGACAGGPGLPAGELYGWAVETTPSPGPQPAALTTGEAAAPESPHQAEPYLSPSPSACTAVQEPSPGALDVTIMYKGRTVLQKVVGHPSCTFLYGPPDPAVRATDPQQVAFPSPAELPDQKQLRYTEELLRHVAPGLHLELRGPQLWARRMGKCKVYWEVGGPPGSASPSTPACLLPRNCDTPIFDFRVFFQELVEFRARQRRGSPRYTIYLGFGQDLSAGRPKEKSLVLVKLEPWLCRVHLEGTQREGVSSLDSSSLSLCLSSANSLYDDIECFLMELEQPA
# Method: protein-binding microarray
# Molecule type: double-stranded DNA, one strand shown
# Medium: in vitro
# Tested at: 250 nM
# Notes: 60-bp whole probe
# Added: salmon DNA 0.4 mg/ml
# Relative to: random background probes
# Reading: higher = stronger binding
# Shared flanks, not repeated: GCCTAGCAC … GTCTTGATTCGCTTGACGCTGCTG
Strand,log fluorescence [z-score]
GACGGACTGGACACTGAGGACGTGCTA,-0.791
GACGATATCGGGTTTGGAGACGTGCTA,-0.432
ATTTTTATCAAATGTGGGATTGTGCTA,0.415
GACGGTTTCCTTATTCTGACGTGCTAG,2.97
GACGGATTCCTTATCCTGACGTGCTAG,0.577
GTCGGACTGGGTCTCGGGACGTGCTAG,-0.0186
ATAGGTATCGGTTTCGGTTAGTGCTAG,10.6
TCATAAAACAACTTTCAAACTGTGCTA,-0.037

# Study 2
# Target: FOXO3, forkhead domain (mouse, UniProt Q9WVH4, residues 31-263)
# UniProt Q9WVH4, sequence (31-263, looked up): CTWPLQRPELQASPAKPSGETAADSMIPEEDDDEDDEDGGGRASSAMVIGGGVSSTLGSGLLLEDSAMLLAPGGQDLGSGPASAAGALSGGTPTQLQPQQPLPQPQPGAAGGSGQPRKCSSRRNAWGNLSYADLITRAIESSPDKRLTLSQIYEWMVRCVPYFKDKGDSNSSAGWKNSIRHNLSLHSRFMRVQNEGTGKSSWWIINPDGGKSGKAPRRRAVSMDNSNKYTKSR
# Method: protein-binding microarray
# Molecule type: hairpin DNA
# Medium: in vitro
# Tested at: not given
# Notes: whole hairpin DNA, median over replicate spots
# Relative to: not given
# Reading: higher = stronger binding
Strand,median fluorescence
GAGGCCATGTAACCCGCGCCTCCTGGCGCGGGTTACATGGCCTCACACTC (5mC at 29),4550 a.u.
GAGGCCAAGTAACCAACGCCTCCTGGCGTTGGTTACTTGGCCTCACACTC,4100 a.u.
GAGGCCCTGTAAACAACGCCTCCTGGCGTTGTTTACAGGGCCTCACACTC,5290 a.u.
GAGGCCAGGTAACCAACGCCTCCTGGCGTTGGTTACCTGGCCTCACACTC (5mC at 37),4380 a.u.
GAGGCCATGTAAACACGGCCTCCTGGCCGTGTTTACATGGCCTCACACTC (5mC at 16),4790 a.u.

# Study 3
# Target: PABPC1L2, full length, GST fusion (mouse, UniProt A0ABA7IW68)
# Method: RNAcompete
# Molecule type: RNA
# Medium: in vitro
# Tested at: 20 nM
# Notes: 7-mer, probes averaged, single round
# Relative to: mean of 7-mers
# Reading: higher = stronger binding
# Residues (chain): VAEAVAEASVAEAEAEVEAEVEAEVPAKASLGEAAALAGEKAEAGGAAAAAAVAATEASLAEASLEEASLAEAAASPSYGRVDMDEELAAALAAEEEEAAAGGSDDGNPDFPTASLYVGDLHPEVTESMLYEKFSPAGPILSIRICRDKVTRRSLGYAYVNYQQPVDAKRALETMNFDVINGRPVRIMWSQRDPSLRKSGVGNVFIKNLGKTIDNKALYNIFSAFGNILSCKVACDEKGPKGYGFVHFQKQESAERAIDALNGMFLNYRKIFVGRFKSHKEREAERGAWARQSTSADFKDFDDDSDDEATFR
Strand,7-mer Z-score
UCUGCAU,-0.224
AGGAACC,0.0551
CUCGUAC,-0.251
GGUCGGC,0.0207
GCCGGUG,-0.322
CAAUCCG,-0.22
AUAACCG,-0.106
ACCCUUG,-0.217
GGUUGCA,-0.0808

# Mixed results
Molecule,target,assay,test system,setting,how to read,measurement,result
"PhoQ, residues 284 288 289 292 302 303 TASMAF","PhoP, residues 12 14 15 18 19 HEGLL (Escherichia coli, UniProt P23836)","Sort-seq, measured: YFP reporter",E. coli,"PhoQ-PhoP variant library, added: 10 µM Mg2+","relative to: high Mg2+ state, higher = stronger signaling",fold induction,12

# Excerpt of the above (study 3):
Strand,7-mer Z-score
AGGAACC,0.0551
CUCGUAC,-0.251
